Experimental data pooled from the literature.
A part holds a random share of what one study measured.

Study 1
Target: Histone acetyltransferase KAT6A, winged helix 2, GST fusion (KAT6A, Homo sapiens, UniProt Q92794, residues 85-181)
Method: protein binding microarray
Molecule type: double-stranded DNA, one strand shown
Medium: in vitro
Concentration: not given
Notes: 8-mer, flanks averaged, mean of 2 arrays, mostly near background
Baseline: not given
Direction: higher = stronger binding
Residues (chain): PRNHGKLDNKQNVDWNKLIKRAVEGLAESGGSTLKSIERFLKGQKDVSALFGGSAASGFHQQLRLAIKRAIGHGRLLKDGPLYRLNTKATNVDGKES
Sequence	E-score
CCCAGCAA	0.136
CCTTGAAC	-0.0811
ATTTGATA	-0.0414
TACCTTAA	-0.201
GGACATTA	-0.0574

Study 2
Target: RNA binding protein fox-1 homolog 2, RRM domain, GST-SBP tag (RBFOX2, Homo sapiens, UniProt O43251-10, residues 100-194)
Method: RNA Bind-n-Seq
Molecule type: RNA
Medium: in vitro
Concentration: 365 nM
Notes: natural RNA segment, single round, ends assumed
Baseline: no-protein control
Direction: higher = stronger binding
All sequences stand within: GGGAGUUCUACAGUCCGACGAUC … UGGAAUUCUCGGGUGCCAA
Residues (chain): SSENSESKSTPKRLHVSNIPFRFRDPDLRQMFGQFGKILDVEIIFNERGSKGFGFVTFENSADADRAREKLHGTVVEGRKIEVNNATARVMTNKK
Sequence	RBNS enrichment (R)
AAGCCCAUGCUGUUGUUGGUUUUUAAGGUUUCUUUCAAUAAUAGGCUAAGGAAAGACAUGUUUUUCUCUUUUAAAUCUCUGCAACUCCAAAGUAGACUCCUUCGAACGUA	0.707
CAAGAAGAUAUAUGUUUGUAUAUCUACAUGGCAUCCUGCACCUCAGAGCUAAGACAGGUUGCACGUCACUCUUCUGUUGUGGGUGGUGAUUGUGUCCAAUAUGGUGUCUC	0.358
AAUUUUUUGAAUAUGCCUUAAUUUAGAAACUGAAAAAUAUCUGGUUAUAUCAUUCUGGGUGUGUUCUUACUGACACCAGGGGUCCGCUGCCCCAUGUGUCCUGGUGAGAA	0.823
GCAGCACUGCCAGGCUGUCGUCAGUUUCACCAUGUGGCCUCUGUGCCCCUCCUCCGUAGUCCUCUCCCUCCGUACAUGCUCCACAGAAAGAAGACCUCUGCUGCCACCUC	0.695
ACUCUGUCAUCCUAUUGGCUGCUUCCCUCUACUAUUUGUAAAAUGUGUAGUGAAUUAUAACAACCUGAAGAUUGCUUUCUGAAACUGUUUUUAAGUUAAGGGAAAAAGUA	0.276
CUGCUAGACACAGCCAAGGCCAACGAGGCAAGCAGAAGCAGCGGCCGCAGCGAAGCUGCCGUUCAUGUGUUGGAGGCCAAAUGUGGCAAACCAACCCCAGGCCCACCCAG	0.219

Study 3
Target: Sal-like protein 4, full length isoform B (SALL4, Homo sapiens, UniProt Q9UJQ4-2, residues 1-616)
Method: universal PBM
Molecule type: double-stranded DNA, one strand shown
Medium: in vitro
Concentration: not given
Notes: 8-mer, flanks averaged, mean of replicates
Direction: higher = stronger binding
Sequence	E-score
AGGGAACC	-0.22
CCAGATCA	0.0179
CGGTCACG	-0.289
ATCATAGA	0.255
TTGATAAA	0.293
CATGTTCA	0.141

Single results of other studies
Molecule	target	assay	system	setting	how to read	endpoint	result
PhoQ, residues 284 288 289 292 302 303 TYGVAM	PhoP, residues 12 14 15 18 19 IFFTR (Escherichia coli, UniProt P23836)	Sort-seq, measured: YFP reporter	E. coli	PhoQ-PhoP variant library, added: 10 µM Mg2+	baseline: high Mg2+ state, higher = stronger signaling	fold induction	2.31

Some of these lines once more (study 3):
Sequence	E-score
AGGGAACC	-0.22
CCAGATCA	0.0179
